Measured values from different studies.
Numbered parts are unrelated; each lists some results of a single study.

Series 1 — technique: protein-binding microarray; form: double-stranded DNA, one strand shown; matrix: in vitro; tested at: 940 nM top; setting: 60-bp whole probe; together with: salmon DNA 0.4 mg/ml; reference: random background probes; reading: higher = stronger binding; shared flanks, not repeated: GCCTAGCAC … GTCTTGATTCGCTTGACGCTGCTG
Target: Interferon regulatory factor 5, full length, phosphomimetic (IRF5, Homo sapiens, UniProt Q13568-2, residues 1-514, S451D/S453D/S456D/S462D)
`CTTAGAATAATTTTTTAGCTTGTGCTA` — result for “fitted relative affinity”: -0.134 z-score.
Under “fitted relative affinity”, `GTAGTAATCTTAAGGCTGTCGTGCTAG` is recorded as -0.474 z-score.
`GACGATATCCTACTGCTGACGTGCTAG` — result for “fitted relative affinity”: 0.0404 z-score.
For `GACGGTCTCGGATTCGGGACGTGCTAG`, “fitted relative affinity” read 1.14 z-score.
For `TCATGTTTGTGTGTGTAACTGTGCTAG`, “fitted relative affinity” read 0.337 z-score.
Under “fitted relative affinity”, `TCTCTTTTCACTTTCTTTACGTGCTAG` is recorded as 4.94 z-score.
`TCAACTCTCTAATTTTGAGAGTGCTAG`: “fitted relative affinity” 0.229 z-score.
`GACGGTCTCCTTATCCTGATGTGCTAG`: “fitted relative affinity” 0.414 z-score.
`GACGGTTTCCTCTTCCTGACGTGCTAG` — result for “fitted relative affinity”: 1.48 z-score.
For `ATCTTCATGAAATTTTAATAAGTGCTA`, “fitted relative affinity” read -0.178 z-score.
Under “fitted relative affinity”, `TTAGGTTTCGATCTCGGTTAGTGCTAG` is recorded as 11.7 z-score.
`GGTGGTGATGGTGAGTAAGAGTGCTAG`: “fitted relative affinity” -0.221 z-score.
For `CTGCCTGTCCATTCCTTCCAGTGCTAG`, “fitted relative affinity” read 0.67 z-score.
`GACGATATCGTGTATCGAGACGTGCTA`: “fitted relative affinity” 0.158 z-score.
`GACGATTTCGGCTATCGAGACGTGCTA`: “fitted relative affinity” 0.65 z-score.
`GACGGTCTCCTTCTCGTGACGTGCTAG` — result for “fitted relative affinity”: 0.373 z-score.
Under “fitted relative affinity”, `TCACTTTCCACTTGTCTTACTGTGCTA` is recorded as 2.2 z-score.
For `GACGGACTGGAGTTTCGGGACGTGCTA`, “fitted relative affinity” read 1.84 z-score.
Under “fitted relative affinity”, `TCAAATTTCCCACTTTCACTGTGCTAG` is recorded as 2.22 z-score.
`GACGATATCAGACTAGAGACGTGCTAG` — result for “fitted relative affinity”: -0.415 z-score.
`GACGATCTCGGTCTCGAGACGTGCTAG` — result for “fitted relative affinity”: 1.46 z-score.
`GACGAGCTGAGTATCGAGACGTGCTAG` — result for “fitted relative affinity”: 1.88 z-score.
Under “fitted relative affinity”, `TCAGGTTTCAGATGCGTACTGTGCTAG` is recorded as 2.3 z-score.
`TCAAACATCATTGTCATACTGTGCTAG` — result for “fitted relative affinity”: -0.0822 z-score.
Under “fitted relative affinity”, `GACGGACTAGGGACTGGGGACGTGCTA` is recorded as -0.342 z-score.

Series 2 — technique: RNA Bind-n-Seq; form: RNA; matrix: in vitro; tested at: 1 µM; setting: whole 134-nt RNA, ends assumed; together with: 150 mM KCl; reference: input library; reading: higher = stronger binding
Target: Ras GTPase-activating protein-binding protein 1, C-terminal RGG region (G3BP1, Homo sapiens, UniProt Q13283)
Sequence of UniProt Q13283 (whole entry, looked up): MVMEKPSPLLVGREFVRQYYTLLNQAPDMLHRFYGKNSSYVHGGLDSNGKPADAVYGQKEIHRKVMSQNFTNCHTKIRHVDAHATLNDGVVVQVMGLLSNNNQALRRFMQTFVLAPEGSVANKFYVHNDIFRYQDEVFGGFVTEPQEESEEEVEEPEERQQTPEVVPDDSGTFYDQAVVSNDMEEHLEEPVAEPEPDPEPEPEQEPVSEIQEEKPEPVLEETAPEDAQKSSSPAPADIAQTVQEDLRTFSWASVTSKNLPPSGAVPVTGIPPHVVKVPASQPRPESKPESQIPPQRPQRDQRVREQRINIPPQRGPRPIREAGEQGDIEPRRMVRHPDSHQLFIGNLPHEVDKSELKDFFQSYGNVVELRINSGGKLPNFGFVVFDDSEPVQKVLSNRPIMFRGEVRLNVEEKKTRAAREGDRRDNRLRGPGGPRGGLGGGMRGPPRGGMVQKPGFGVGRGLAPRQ
Shared flanks, not repeated: GGGAGUUCUACAGUCCGACGAUC … UGGAAUUCUCGGGUGUCAAGG
The log2 enrichment of `UGGCCCUGGUGGCAUGCGGGGAGGAAGAAGUGGCCUCAUGGAUCGUGGUGGUCCCGGUGGAAUGUUCAGAGGUGGCCGUGGUGGAGACAG` is reported as 1.87.
For `UGGGAGGUGGAUUUUGUUUAUUUUUUUCGCUCAUUUCCAGGGGUGGGAAUUUUUUUUUAAUAUGUGUCAUGAAUAAAGUUGUUUUUGAAA`, the log2 enrichment was 3.55.
`UACCUUUAGAGGAGGAUCUGAUGGAUAUGGCAGUGGACGUGGAUUUGGGGAUGGCUAUAAUGGGUAUGGAGGAGGACCUGGAGGUGGCAA` gave a log2 enrichment of -1.62.
`UCAAGUCCUGUGCUACACAUCGUAUGUACCGAAUCGGGAAAGGGAAAGGGUGGGAAAGUAUUAUGUUACGCCGUUCGGAUCUGCACUUCC` has a log2 enrichment of 1.62.
With `ACUAUGCAGGUGGGCAUCUUUGGGAAGUGGGGCAAGGGGGGGAUAGGGAGGGGGGUAACACUUUGGGAACAGGUGGUCCCAGGUCGUUUC` the log2 enrichment was -0.658.
For `UCAAGUCCUGUGCUACACAUCGUAUGUACCGAAUCGGGAAAGGAAAGGGAAAGGAAAGUAUUAUGUUACGCCGUUCGGAUCUGCACUUCC`, the log2 enrichment was -1.54.
`GUCCUGUGCUACACAUCGUAUGUACCGAAUCGGGGUUUUUGGGGUGGGGUUUUUGGGGAAAGUAUUAUGUUACGCCGUUCGGAUCUGCAC` has a log2 enrichment of 1.81.
The log2 enrichment of `ACCAUGCAGGUGGGCAUCUUUGGGAAGUGGGGCAAGGGGGGGAUAGGGAGGGGGGUGACACUUUGGGAACAGGUGGUCCCAGGUCGUUUC` is reported as 2.04.
The log2 enrichment of `ACCAUGCAGGUGGGCAUCUUUGGGAAGUGGGGCAAGGGGGGGAUAGGGAGGGGGGUCACACUUUGGGAACAGGUGGUCCCAGGUCGUUUC` is reported as 1.9.
With `CAAGUCCUGUGCUACACAUCGUAUGUACCGAAUCGGAAAAGGGGAAAAGGAAAAGGAAAGUAUUAUGUUACGCCGUUCGGAUCUGCACUU` the log2 enrichment was -1.77.
For `GCAGGAAGUAAAAACAAAUGGAAAUGCUUCGGAUAGUGGCAGGGGUGGGGGUUGCUAAGGAAUGGGUGGGAUGGGAGUGGGUAAAGAGUU`, the log2 enrichment was 1.57.
For `GCAGGAAGUAAAAACAAAUGGAAAUGCUUCGGAAAGUGGCAGGGGUGGGGGUUGCUAAGGAAAGGGUGGGAUGGGAGUGGGUAAAGAGUU`, the log2 enrichment was 2.09.
`GUCCUGUGCUACACAUCGUAUGUACCGAAUCGGGGUUUGGGGAAAGGGGUUUUUGGGGAAAGUAUUAUGUUACGCCGUUCGGAUCUGCAC` gave a log2 enrichment of 3.27.
`UGGGAGGUGGAUUUUGUUUAUUUUUUUAGCUCAUUUCCAUGGGUGGGAAUUUUUUUUUAAUAUGUGUCAUGAAUAAAGUUGUUUUUGAAA` gave a log2 enrichment of 3.13.

Series 3 — technique: protein binding microarray; form: double-stranded DNA, one strand shown; matrix: in vitro; tested at: not given; reference: not given; reading: higher = stronger binding
Target: Histone acetyltransferase KAT6A, both winged helices, GST fusion (KAT6A, Homo sapiens, UniProt Q92794, residues 1-181)
Setting: 8-mer, flanks averaged, mean of 2 arrays, mostly near background
Residues (chain): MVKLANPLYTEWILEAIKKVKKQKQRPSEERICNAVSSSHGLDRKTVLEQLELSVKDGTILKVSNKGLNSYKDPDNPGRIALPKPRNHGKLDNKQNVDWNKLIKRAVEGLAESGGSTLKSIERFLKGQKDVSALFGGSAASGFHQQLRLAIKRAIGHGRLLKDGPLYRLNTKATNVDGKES
For `CAGTCTGC`, the E-score was -0.119.
For `CCCCAACA`, the E-score was -0.27.
For `CGCATTAG`, the E-score was 0.0878.
`ATTGTCGA` has an E-score of -0.177.
With `CCACAAAG` the E-score was -0.13.
For `CTAACTAA`, the E-score was -0.0348.
`CGTCATAA` has an E-score of 0.00645.
For `AACCTAAC`, the E-score was 0.0268.
With `AGAGTAGC` the E-score was -0.21.
With `ATGAGGAG` the E-score was -0.0381.
For `GGAGGGAA`, the E-score was -0.112.
`GAAAAGTA` has an E-score of -0.177.
The E-score of `ACCTGTTC` is reported as -0.174.
The E-score of `GTCCTAGA` is reported as -0.00037.
With `ACCCTCCG` the E-score was 0.101.
For `GCTCATCC`, the E-score was 0.00334.
With `TTACTAAA` the E-score was -0.0887.
For `CTGGGCAA`, the E-score was -0.252.
`TACCACGA` has an E-score of -0.135.

Series 4 — technique: RNA Bind-n-Seq; form: RNA; matrix: in vitro; tested at: 365 nM; reference: no-protein control; reading: higher = stronger binding
Target: RNA binding protein fox-1 homolog 2, RRM domain, GST-SBP tag (RBFOX2, Homo sapiens, UniProt O43251-10, residues 100-194)
Setting: natural RNA segment, single round, ends assumed
Shared flanks, not repeated: GGGAGUUCUACAGUCCGACGAUC … UGGAAUUCUCGGGUGCCAA
Target sequence (chain): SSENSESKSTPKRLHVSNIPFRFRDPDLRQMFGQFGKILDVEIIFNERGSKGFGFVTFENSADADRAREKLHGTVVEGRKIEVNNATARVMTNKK
`GUAUAGCACUACAUUCUUUUUUAAGUGAUGUAAACUUUAGUUUCUUUAGCCCCUUCAUUUUGAAUAUGAUGCCACAUAUGAAUGUUGAAGCUGAUACAUUGCACAAUUCU` — result for “RBNS enrichment (R)”: 0.387.
For `GGGCGGGAGUUCCUACCCCAUCUCUGCUUCCCCUGGAGGCCGGCCAGCGUUUGUGGGUUGGUUCAGGUGUGGUACCUCCCACUCAGGAGUCAAUAUUUUCAAAUUUUUCU`, “RBNS enrichment (R)” read 0.44.
Under “RBNS enrichment (R)”, `CCACCUUCCAAGCCAGUUGCAGAGCCCCUGCUAAGGACCGAGCCUGCUCACUCAUCUCAGCUCCAGCCGCACAGCCACAGCCUCAGGUCUGUUUAGCUUGGGAAGCCAAA` is recorded as 0.418.
For `AAAACUCUAGCGCAUCUUCUGGCACGGUUUUAACAACGUGUUUGUGUUGAAUUUCCUUUUUAUGCAUCAAACGAAGGCCAUAUUGUCCAUAAAUGCUCAGUGCUCAGGAU`, “RBNS enrichment (R)” read 1.16.
`UGCUGUUAAUACUUCCAUCCUCUUCCUUCCCAAAGAGCAGAUCCCAAGGCAUUUACUCCUUGGUCUGUCUCGCUUUAUCUGUCGCCCCUCCCAGCGCUGAGAGCCUCCCC`: “RBNS enrichment (R)” 0.918.
Under “RBNS enrichment (R)”, `CCGGAGGGAAGAGAACAUAGUGAAGAUUCCCGCCUUUGGGGAGGUCUGGACCACCCAGGGCCUCCACUGCCACCUUGGCUGGCAAGGGAGAAAUGUGUUGUGUUGUCUUA` is recorded as 0.711.
For `AACACACCUCCAAACUGUAAGGCUGUGCACAAACAUAAAAAAUGGCAGCCUUCCAUCUCCUGCACUGGCUGAGUCCAUUUACUUGUGUACUUGUUCUAGUGAGUGGUGGG`, “RBNS enrichment (R)” read 0.258.
For `CUCACCAGUGGACAAAUAAUAAGGCCUUUUUUUAUUAUUAUUUCUUGUCUUUUUUGAUCUAAUUUAUAUUUUAUAUUGUUGAAUUCUCCCUCCUUUGGCUUGUGGGAUCC`, “RBNS enrichment (R)” read 1.38.
`GCUCCUGCUAAGACAUGGAAACAAGUAUUGGAACCUCCAGAGUGUUUAAAUGGCUAUUGAAAUUUAUAAUGGCCCUUCAAUUCUUACUAUAUGCUUAAUAGUGUGCUAAA`: “RBNS enrichment (R)” 0.519.
For `CCAGUAAUGCACUUCCUUCAAAAGACCCCACCUCCUAAUCCUUGUAAUCUUCCUCAAACCAGUUCUGGGCUCUAGUGACUAGACAUUCAAAUAUAUGAGCCUAUGGGAAC`, “RBNS enrichment (R)” read 0.569.
Under “RBNS enrichment (R)”, `CUGUGUGGAGUCUGUGAGUGUGCUCUUGAGUAGCGUGGGCUAGCCAAUCUGCCAUUCAUGGUGUUAUAAACUCGGAAUUCCAUAUGUAAUAGGAUGCAAGUCUAAGCGUU` is recorded as 0.253.
For `GUACUACCCAUUCAUCUAUUGUAGAGUAACCCUUGUGACUCAAUAUUACCAUAGUGCGAUGUUGUUUUGUGCUAUUUUGAACAAUUAAAAAGACUUUUUUUGAAAUAACC`, “RBNS enrichment (R)” read 0.843.

Excerpt of the above (series 1):
`GACGGTTTCCTCTTCCTGACGTGCTAG` — result for “fitted relative affinity”: 1.48 z-score.
For `GACGGTCTCGGATTCGGGACGTGCTAG`, “fitted relative affinity” read 1.14 z-score.
`GACGATATCAGACTAGAGACGTGCTAG` — result for “fitted relative affinity”: -0.415 z-score.
`GACGGTCTCCTTCTCGTGACGTGCTAG` — result for “fitted relative affinity”: 0.373 z-score.
`TCAAACATCATTGTCATACTGTGCTAG` — result for “fitted relative affinity”: -0.0822 z-score.
`GACGATTTCGGCTATCGAGACGTGCTA`: “fitted relative affinity” 0.65 z-score.
`GGTGGTGATGGTGAGTAAGAGTGCTAG`: “fitted relative affinity” -0.221 z-score.
